# Measured values from different studies.
# Lines come from different studies, so protocols differ. Values joined by “and” are separate records of one study, mostly repeats; a detail may differ. Numbers after ± are the reported error.
# MAOB: Amine oxidase [flavin-containing] B (MAOB, Homo sapiens, UniProt P27338)
# Chain of UniProt P27338 (whole entry, looked up): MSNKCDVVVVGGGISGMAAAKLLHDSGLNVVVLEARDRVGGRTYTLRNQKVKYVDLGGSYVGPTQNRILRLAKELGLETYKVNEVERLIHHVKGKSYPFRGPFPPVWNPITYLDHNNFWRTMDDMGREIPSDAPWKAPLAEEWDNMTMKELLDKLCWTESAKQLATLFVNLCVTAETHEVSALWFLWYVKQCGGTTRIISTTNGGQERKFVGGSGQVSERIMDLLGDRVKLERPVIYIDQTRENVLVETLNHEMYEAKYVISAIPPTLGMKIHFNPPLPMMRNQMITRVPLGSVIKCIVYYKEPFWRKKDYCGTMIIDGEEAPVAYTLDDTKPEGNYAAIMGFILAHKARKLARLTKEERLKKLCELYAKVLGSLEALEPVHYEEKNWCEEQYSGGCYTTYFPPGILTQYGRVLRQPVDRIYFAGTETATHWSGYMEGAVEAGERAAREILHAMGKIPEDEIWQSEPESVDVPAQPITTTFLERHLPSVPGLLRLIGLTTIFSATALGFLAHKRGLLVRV
# DNA dC->dU-editing enzyme APOBEC-3B C-terminal domain: DNA dC->dU-editing enzyme APOBEC-3B, C-terminal domain (Homo sapiens, UniProt Q9UH17)
# Chain of UniProt Q9UH17 (whole entry, looked up): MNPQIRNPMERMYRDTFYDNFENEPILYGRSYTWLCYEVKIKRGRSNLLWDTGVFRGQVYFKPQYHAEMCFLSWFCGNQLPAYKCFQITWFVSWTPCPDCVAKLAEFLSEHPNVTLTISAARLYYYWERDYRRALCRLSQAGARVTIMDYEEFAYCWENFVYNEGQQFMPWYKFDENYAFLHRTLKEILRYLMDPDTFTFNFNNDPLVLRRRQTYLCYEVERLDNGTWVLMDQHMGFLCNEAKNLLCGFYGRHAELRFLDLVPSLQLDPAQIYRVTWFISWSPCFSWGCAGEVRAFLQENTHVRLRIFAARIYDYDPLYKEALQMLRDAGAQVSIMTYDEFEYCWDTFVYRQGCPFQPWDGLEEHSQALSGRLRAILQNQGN
# IL1R1: Interleukin-1 receptor type 1 (IL1R1, Homo sapiens, UniProt P14778)
# Chain of UniProt P14778 (whole entry, looked up): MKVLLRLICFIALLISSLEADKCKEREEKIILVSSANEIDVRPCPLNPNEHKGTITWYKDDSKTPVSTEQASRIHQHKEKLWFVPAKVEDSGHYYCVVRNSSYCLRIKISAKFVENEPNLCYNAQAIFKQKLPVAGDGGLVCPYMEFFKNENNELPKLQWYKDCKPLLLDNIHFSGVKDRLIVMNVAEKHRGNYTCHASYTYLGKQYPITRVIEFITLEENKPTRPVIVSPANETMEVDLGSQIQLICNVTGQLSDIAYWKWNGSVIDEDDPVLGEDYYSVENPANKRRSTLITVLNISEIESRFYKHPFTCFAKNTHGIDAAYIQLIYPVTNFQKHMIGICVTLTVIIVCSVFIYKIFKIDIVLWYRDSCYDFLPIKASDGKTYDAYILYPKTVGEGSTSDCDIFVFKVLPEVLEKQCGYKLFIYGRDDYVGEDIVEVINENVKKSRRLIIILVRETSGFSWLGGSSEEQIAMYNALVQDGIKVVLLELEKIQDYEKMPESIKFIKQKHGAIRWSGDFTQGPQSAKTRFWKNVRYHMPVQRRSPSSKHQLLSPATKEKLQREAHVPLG
# TDP1: Tyrosyl-DNA phosphodiesterase 1 (TDP1, Homo sapiens, UniProt Q9NUW8)
# Chain of UniProt Q9NUW8 (whole entry, looked up): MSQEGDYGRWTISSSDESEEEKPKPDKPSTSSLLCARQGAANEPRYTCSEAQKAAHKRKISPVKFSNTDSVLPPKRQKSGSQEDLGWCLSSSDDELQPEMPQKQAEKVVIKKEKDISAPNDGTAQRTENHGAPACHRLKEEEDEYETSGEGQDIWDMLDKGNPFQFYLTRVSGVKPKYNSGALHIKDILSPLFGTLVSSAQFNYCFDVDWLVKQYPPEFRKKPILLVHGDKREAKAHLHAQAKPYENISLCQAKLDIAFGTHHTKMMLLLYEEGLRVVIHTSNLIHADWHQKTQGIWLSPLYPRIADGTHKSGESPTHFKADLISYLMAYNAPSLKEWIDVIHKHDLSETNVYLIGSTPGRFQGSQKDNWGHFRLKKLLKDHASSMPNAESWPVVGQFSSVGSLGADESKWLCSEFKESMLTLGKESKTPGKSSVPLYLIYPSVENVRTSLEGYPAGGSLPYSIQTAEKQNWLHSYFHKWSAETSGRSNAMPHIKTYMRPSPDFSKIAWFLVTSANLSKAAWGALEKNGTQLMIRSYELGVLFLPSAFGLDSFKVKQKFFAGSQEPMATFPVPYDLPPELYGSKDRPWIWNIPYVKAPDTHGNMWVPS
# RAD51: DNA repair protein RAD51 homolog 1 (RAD51, Homo sapiens, UniProt Q06609)
# Chain of UniProt Q06609 (whole entry, looked up): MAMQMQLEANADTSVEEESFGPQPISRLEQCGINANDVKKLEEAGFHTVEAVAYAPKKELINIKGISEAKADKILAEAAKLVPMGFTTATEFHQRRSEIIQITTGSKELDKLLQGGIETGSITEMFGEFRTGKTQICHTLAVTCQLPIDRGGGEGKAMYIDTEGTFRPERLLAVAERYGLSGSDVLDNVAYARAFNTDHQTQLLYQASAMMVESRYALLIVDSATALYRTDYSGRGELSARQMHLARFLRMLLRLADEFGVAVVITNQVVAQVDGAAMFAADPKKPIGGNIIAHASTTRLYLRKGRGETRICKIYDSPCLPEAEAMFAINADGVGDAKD
# MAPK8: Mitogen-activated protein kinase 8 (MAPK8, Homo sapiens, UniProt P45983)
# Chain of UniProt P45983 (whole entry, looked up): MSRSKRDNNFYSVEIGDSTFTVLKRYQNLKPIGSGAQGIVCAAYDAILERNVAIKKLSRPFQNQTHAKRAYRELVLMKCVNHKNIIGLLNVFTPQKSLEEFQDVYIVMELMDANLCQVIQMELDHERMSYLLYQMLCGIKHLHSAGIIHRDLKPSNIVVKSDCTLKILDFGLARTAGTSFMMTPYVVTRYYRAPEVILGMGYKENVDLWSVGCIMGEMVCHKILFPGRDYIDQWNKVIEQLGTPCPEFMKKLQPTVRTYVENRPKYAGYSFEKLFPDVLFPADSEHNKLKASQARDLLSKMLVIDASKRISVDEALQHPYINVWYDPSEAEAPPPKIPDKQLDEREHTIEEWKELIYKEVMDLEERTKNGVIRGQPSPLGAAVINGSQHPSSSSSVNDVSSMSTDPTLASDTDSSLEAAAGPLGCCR
# Chain of UniProt Q03468 (whole entry, looked up): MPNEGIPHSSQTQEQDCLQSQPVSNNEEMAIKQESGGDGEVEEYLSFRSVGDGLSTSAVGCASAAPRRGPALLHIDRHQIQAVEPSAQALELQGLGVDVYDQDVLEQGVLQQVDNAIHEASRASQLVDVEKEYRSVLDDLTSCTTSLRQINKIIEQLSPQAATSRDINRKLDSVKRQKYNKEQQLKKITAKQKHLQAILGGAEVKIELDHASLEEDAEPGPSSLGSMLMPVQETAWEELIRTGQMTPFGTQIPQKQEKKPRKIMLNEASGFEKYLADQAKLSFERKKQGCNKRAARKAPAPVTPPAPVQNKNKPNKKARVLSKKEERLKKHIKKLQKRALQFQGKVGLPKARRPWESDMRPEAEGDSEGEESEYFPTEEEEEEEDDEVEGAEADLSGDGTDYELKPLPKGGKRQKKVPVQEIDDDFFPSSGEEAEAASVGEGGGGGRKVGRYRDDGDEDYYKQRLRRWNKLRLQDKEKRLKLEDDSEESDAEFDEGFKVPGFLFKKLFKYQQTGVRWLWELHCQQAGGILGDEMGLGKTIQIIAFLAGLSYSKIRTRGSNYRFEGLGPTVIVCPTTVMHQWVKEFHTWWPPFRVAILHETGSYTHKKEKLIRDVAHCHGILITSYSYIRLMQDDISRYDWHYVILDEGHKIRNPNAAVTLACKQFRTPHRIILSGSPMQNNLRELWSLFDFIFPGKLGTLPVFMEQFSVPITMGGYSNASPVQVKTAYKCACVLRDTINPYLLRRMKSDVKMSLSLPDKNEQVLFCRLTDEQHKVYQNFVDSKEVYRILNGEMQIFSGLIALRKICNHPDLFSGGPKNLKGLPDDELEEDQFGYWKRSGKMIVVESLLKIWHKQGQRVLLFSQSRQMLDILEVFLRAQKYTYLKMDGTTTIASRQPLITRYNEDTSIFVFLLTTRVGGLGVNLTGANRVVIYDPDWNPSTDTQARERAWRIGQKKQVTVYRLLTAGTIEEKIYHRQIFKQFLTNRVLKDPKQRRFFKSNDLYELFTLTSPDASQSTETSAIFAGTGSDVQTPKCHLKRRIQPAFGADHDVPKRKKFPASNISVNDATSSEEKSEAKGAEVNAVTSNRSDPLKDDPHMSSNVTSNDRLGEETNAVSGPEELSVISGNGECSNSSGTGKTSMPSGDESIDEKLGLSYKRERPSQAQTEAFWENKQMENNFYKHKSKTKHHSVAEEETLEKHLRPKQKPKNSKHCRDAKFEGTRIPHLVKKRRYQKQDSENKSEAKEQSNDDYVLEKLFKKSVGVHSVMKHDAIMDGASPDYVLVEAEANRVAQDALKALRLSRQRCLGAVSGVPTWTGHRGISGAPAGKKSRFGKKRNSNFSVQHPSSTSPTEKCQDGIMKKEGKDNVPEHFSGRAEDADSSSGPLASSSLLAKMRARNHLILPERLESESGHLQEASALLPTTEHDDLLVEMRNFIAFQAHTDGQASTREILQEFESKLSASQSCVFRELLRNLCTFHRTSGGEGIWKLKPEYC
# Chain of UniProt P28074 (whole entry, looked up): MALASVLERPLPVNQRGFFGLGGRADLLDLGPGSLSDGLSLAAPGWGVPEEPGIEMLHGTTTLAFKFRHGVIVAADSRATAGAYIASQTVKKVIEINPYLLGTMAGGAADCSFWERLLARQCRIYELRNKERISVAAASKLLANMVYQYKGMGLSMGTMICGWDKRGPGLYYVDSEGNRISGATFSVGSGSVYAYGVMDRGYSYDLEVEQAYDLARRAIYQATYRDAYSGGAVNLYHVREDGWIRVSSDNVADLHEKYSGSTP
# Chain of UniProt P20618 (whole entry, looked up): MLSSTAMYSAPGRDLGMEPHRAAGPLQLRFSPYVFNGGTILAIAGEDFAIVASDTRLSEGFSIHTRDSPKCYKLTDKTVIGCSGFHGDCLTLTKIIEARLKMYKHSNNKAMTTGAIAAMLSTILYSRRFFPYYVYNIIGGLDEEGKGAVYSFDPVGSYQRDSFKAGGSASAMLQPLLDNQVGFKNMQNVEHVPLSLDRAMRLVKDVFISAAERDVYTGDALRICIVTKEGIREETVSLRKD
SMILES,target or system,assay,system,setting,scale,measurement,result
CC(C)c1ccc(/C=C/C(=O)c2ccc(O)cc2)cc1,MAOB,"enzyme activity, inhibitor",,"about 2 × IC50, 30 min preincubation, without dialysis",,remaining activity,42%
NC(=O)c1ccc2nc(CN3CCCC3c3ccco3)cc(O)c2c1 (stereo not shown),DNA dC->dU-editing enzyme APOBEC-3B C-terminal domain,"deaminase activity, inhibitor",,500 µM,,remaining activity,15%
Cc1ncsc1-c1ccc(C(C)NC(=O)C2CC(O)CN2C(=O)C(NC(=O)CCCCCCCCCCN2CCCC(Nc3ncc(Cl)c(Nc4ccccc4S(=O)(=O)C(C)C)n3)C2)C(C)(C)C)cc1 (stereo not shown),22Rv1,"RNA-seq, refers to: NUMBL mRNA",,concentration not given,baseline: DMSO,log2 fold change,-1.12
C[C@](C(=O)NC1CCOCC1)(c1cncnc1)N(C(=O)[C@H](F)Cl)c1ccc(OC(F)(F)Cl)cc1,"ACE2 (Homo sapiens, UniProt Q9BYF1)","enzyme activity, inhibitor",,10 µM,,remaining activity,104%
N#Cc1cnc2sc(C(=O)O)cc2c1N1CCc2[nH]nc(C(=O)N[C@@H](CC(=O)NCCOCCN3CCOCC3)c3cccc(Br)c3)c2C1,IL1R1,"SEAP reporter gene, inhibitor",HEK-Blue reporter cells,"0.046 µM, 6 h, added: IL-1β 5 ng/mL",,remaining activity,92%
COC(=O)c1nn(C)c(Cl)c1C=NOCc1ccc2nc(-c3ccccc3)c(Nc3ccc(C(=O)O)cc3)n2c1 (mixture of isomers),TDP1,"enzyme activity, inhibitor",,"100 µM, unpurified compound",,inhibition,54.6%
CC(C)c1ccc(/C=C/C(=O)c2ccc(F)cc2)cc1,MAOB,"enzyme activity, inhibitor",,"about 2 × IC50, 30 min preincubation, after dialysis",,remaining activity,77.3%
CC(C)[C@@H]1NC(=O)[C@H](Cc2ccccc2)NC(=O)CSC[C@@H](C(N)=O)NC(=O)[C@H](CCC(=O)O)NC(=O)[C@H](CO)NC(=O)[C@H](Cc2c[nH]c3ccccc23)NC(=O)[C@H](C(C)C)NC(=O)[C@H](C(C)C)NC(=O)[C@H](Cc2ccc(O)cc2)NC(=O)[C@H](CC(=O)O)NC(=O)[C@H](Cc2c[nH]c3ccccc23)NC(=O)[C@H](Cc2ccc(O)cc2)NC(=O)[C@H](Cc2c[nH]c3ccccc23)NC(=O)[C@H](CCC(=O)O)NC1=O,IL1R1,"IL-8 release, antagonist",A-431,"4 µM, 18 h, added: IL-1β 5 ng/mL",baseline: untreated,remaining activity,94.1%
Nc1ncc(-c2cc(-c3cnn(CC(F)(F)F)c3)ncc2F)nc1C(=O)NC1CNCC(F)C1 (stereo not shown),DYRK1B,KINOMEscan,,1 µM,baseline: DMSO control,remaining binding,56%
CN(C)S(=O)(=O)c1ccc(S(=O)(=O)N2CCC(n3c(=O)[nH]c4ccccc43)CC2)cc1,"DNA excision repair protein ERCC-6 (ERCC6, Homo sapiens, UniProt Q03468)","ATPase activity, BIOMOL Green",,concentration not given,,remaining activity,98.2% and 95.4%
O=c1cnnc(Nc2ccc(O)cc2)[nH]1,DNA dC->dU-editing enzyme APOBEC-3B C-terminal domain,"deaminase activity, inhibitor",,500 µM,,remaining activity,23.7%
CN1CCC[C@@H]1C(=O)N[C@@H](Cc1ccc(-c2ccccc2)cc1)B(O)O,"Proteasome component C5/PSMB5 (Homo sapiens, UniProt P20618+P28074)","enzyme activity, inhibitor",,"1 µM, PA28αβ-activated, Tris buffer, added: Ac-WLA-AMC substrate",,remaining activity,30 ± 2%
CC(C)c1ccc(/C=C/C(=O)c2ccc(Cl)cc2)cc1,MAOB,"enzyme activity, inhibitor",,1 µM,,remaining activity,-1.8%
Cn1c2ccccc2n2c(C=NOCc3ccc4nc(-c5ccccc5)c(Nc5ccc(C(=O)O)cc5)n4c3)c(-c3ccccc3)nc12,TDP1,"enzyme activity, inhibitor",,"100 µM, unpurified compound",,inhibition,106%
Cn1nc(-c2ccc(Cl)cc2)c2cc(C(=O)NCCCN3CCCC3)sc21,RAD51,"D-loop formation, inhibitor",,"10 x RAD52 pairing IC50, 4% DMSO, added: 1 mM calcium chloride",baseline: DMSO control,remaining activity,35.3 ± 5.8%
COC(=O)[C@]1(C(C)C)C=C(C(=O)Nc2cccc(C(=O)Nc3ccc(Nc4nccc(-c5cccnc5)n4)c(C)c3)c2)C(=O)CC1,MAPK8,"kinase activity, inhibitor",,"0.06097 µM, unit not given, added: 10 mM glutathione",baseline: no inhibitor,remaining activity,0.856
O=C=[N][Ru-4]123([n]4c5ccc(O)cc5c5c6c(c7cc(F)c[n+]1c7c54)C(=O)NC6=O)[S+]1CC[S+]2CC[S+]3CC1 (stereo not shown),"Lyn (Mus musculus, UniProt P25911)",enzyme activity,,"100 nM, mouse enzyme, added: 10 µM ATP",baseline: untreated,remaining activity,72%
COc1ccc(-c2ccc(C(=O)N(C)CCO)cc2)c(OC)c1,DNA dC->dU-editing enzyme APOBEC-3B C-terminal domain,"deaminase activity, inhibitor",,500 µM,,remaining activity,18.1%
Cc1cnc2nc1Nc1cccc(c1)COC/C=C/COCc1cc(ccc1OCCN1CCOCC1)N2,"JAK1 (Homo sapiens, UniProt P23458)",,,concentration not given,baseline: untreated control,remaining activity,58%
COC1CN([C@H]2CC[C@H]([C@@]3(C)Oc4c(Cl)cc(C(=O)NCc5c(SC)cc(C)[nH]c5=O)c(C)c4O3)CC2)C1,,"RNA-seq, refers to: S100A10","human, whole blood","dose not given, 24 h",baseline: pretreatment baseline,log2 fold change,1.43
CCC1Sc2ccc(S(=O)(=O)CCC(=O)Nc3cccc4ccccc34)cc2NC1=O (stereo not shown),"P2X purinoceptor 7 (P2rx7, Mus musculus, UniProt Q9Z1M0, A312V)","ATP-evoked current, whole-cell patch clamp",,3 µM,baseline: no compound,remaining activity,89.8%
COc1ccccc1-c1ccncc1C(=O)Nc1nnc(OCc2ccc(Cl)cc2)s1,"DNA polymerase theta, helicase domain (POLQ, Homo sapiens, UniProt O75417)","ATPase activity, ADP-Glo",,"0.06 µM, added: ATP 100 µM",,remaining activity,43%
CCCCN(CC)CCNC(=O)c1cc2c(-c3ccc(Cl)cc3)nn(C)c2s1,RAD51,"D-loop formation, inhibitor",,"10 x RAD52 pairing IC50, 4% DMSO, added: 1 mM calcium chloride",baseline: DMSO control,remaining activity,58.6 ± 2.9%
CCOc1ccc(C(=O)/C=C/c2ccc(C(C)C)cc2)cc1,MAOB,"enzyme activity, inhibitor",,1 µM,,remaining activity,37.6%
O=C(c1cccc(-c2cc(NCCO)ncn2)c1)N1CCCC1c1ccccc1 (stereo not shown),DNA dC->dU-editing enzyme APOBEC-3B C-terminal domain,"deaminase activity, inhibitor",,500 µM,,remaining activity,7.1%
CC(C)[C@@H]1NC(=O)[C@H](Cc2ccccc2)NC(=O)CSC[C@@H](C(N)=O)NC(=O)[C@H](CCC(=O)O)NC(=O)[C@H](CO)NC(=O)[C@H](Cc2c[nH]c3cccc(Cl)c23)NC(=O)[C@H](C2CCCCC2)NC(=O)[C@H](C(C)C)NC(=O)[C@H](Cc2ccc(O)cc2)NC(=O)[C@H](CC(=O)O)NC(=O)[C@H](Cc2c[nH]c3ccccc23)NC(=O)[C@H](Cc2ccc(N)nc2)NC(=O)[C@H](Cc2c[nH]c3ccc(Cl)cc23)NC(=O)[C@H](CCC(=O)O)NC1=O,"Interleukin-1 receptor-like 2 (IL1RL2, Homo sapiens, UniProt Q9HB29)","reporter gene (SEAP), inhibitor, HEK-Blue IL-36R reporter",HEK-Blue IL-36R cells,"0.41 µM, 6 h, added: IL-36β 0.1 ng/mL",,remaining activity,48.1%
COc1ccc(-c2nc(C(=O)NCCCN3CCOCC3)cc3c2[nH]c2ccccc23)cc1OC,RAD51,"D-loop formation, inhibitor",,"10 x RAD52 pairing IC50, 4% DMSO, added: 1 mM calcium chloride",baseline: DMSO control,remaining activity,93.7 ± 2.1%
OCC1CCCN(CCNc2cc(-c3ccccc3)nc3ccnn23)C1 (stereo not shown),DNA dC->dU-editing enzyme APOBEC-3B C-terminal domain,"deaminase activity, inhibitor",,500 µM,,remaining activity,12.2%
CCCN(CCC)CCCNC(=S)Nc1ccc2nc(N3CCN(C)CC3)cc(C)c2c1,RAD51,"D-loop formation, inhibitor",,"10 x RAD52 pairing IC50, 4% DMSO, added: 1 mM calcium chloride",baseline: DMSO control,remaining activity,110.7 ± 0.2%
COc1ccc(NC(=O)Nc2ccc3c(c2)C(=O)N(C(C)CO)CC(C)C(CN(C)Cc2ccc4c(c2)OCO4)O3)cc1 (stereo not shown),"FGFR2 (Homo sapiens, UniProt P21802, N549H)",kinase activity,,0.03 µM,baseline: control,remaining activity,92%
C=C1C[C@@]2(C(=O)OC)C=C(C(=O)Nc3cccc(C(=O)Nc4ccc(Nc5nccc(-c6cccnc6)n5)c(C)c4)c3)C(=O)[C@@H]1C2,MAPK8,"kinase activity, inhibitor",,"44.44 µM, unit not given, added: 10 mM glutathione",baseline: no inhibitor,remaining activity,0.0273
CCN(CC)CCCN(Cc1cc2cc3c(cc2[nH]c1=O)OCO3)C(=S)NCCCN(C)C,RAD51,"D-loop formation, inhibitor",,"10 x RAD52 pairing IC50, 4% DMSO, added: 1 mM calcium chloride",baseline: DMSO control,remaining activity,102 ± 1.1%
COC(=O)[C@@]1(C)C=C(C(=O)Nc2cccc(C(=O)Nc3ccc(Nc4nccc(-c5cccnc5)n4)c(C)c3)c2)C(=O)CC1,"MAPK1 (Homo sapiens, UniProt P28482)","kinase activity, inhibitor",,"1.646 µM, unit not given",baseline: no inhibitor,remaining activity,0.955
COc1ccc(OC)c(Nc2nc(NCCO)c3ccccc3n2)c1,RAD51,"D-loop formation, inhibitor",,"10 x RAD52 pairing IC50, 4% DMSO, added: 1 mM calcium chloride",baseline: DMSO control,remaining activity,75.1 ± 4.8%

# A few entries again:
SMILES,target or system,assay,system,setting,scale,measurement,result
NC(=O)c1ccc2nc(CN3CCCC3c3ccco3)cc(O)c2c1 (stereo not shown),DNA dC->dU-editing enzyme APOBEC-3B C-terminal domain,"deaminase activity, inhibitor",,500 µM,,remaining activity,15%
C=C1C[C@@]2(C(=O)OC)C=C(C(=O)Nc3cccc(C(=O)Nc4ccc(Nc5nccc(-c6cccnc6)n5)c(C)c4)c3)C(=O)[C@@H]1C2,MAPK8,"kinase activity, inhibitor",,"44.44 µM, unit not given, added: 10 mM glutathione",baseline: no inhibitor,remaining activity,0.0273
COC(=O)[C@@]1(C)C=C(C(=O)Nc2cccc(C(=O)Nc3ccc(Nc4nccc(-c5cccnc5)n4)c(C)c3)c2)C(=O)CC1,"MAPK1 (Homo sapiens, UniProt P28482)","kinase activity, inhibitor",,"1.646 µM, unit not given",baseline: no inhibitor,remaining activity,0.955
